# Assay results gathered from unrelated publications.
# Parts stem from different laboratories: compare values within a part only.

# Study 1
# Target: Sal-like protein 4, full length isoform A (SALL4, Homo sapiens, UniProt Q9UJQ4, residues 1-1053)
# UniProt Q9UJQ4, sequence (whole entry, looked up): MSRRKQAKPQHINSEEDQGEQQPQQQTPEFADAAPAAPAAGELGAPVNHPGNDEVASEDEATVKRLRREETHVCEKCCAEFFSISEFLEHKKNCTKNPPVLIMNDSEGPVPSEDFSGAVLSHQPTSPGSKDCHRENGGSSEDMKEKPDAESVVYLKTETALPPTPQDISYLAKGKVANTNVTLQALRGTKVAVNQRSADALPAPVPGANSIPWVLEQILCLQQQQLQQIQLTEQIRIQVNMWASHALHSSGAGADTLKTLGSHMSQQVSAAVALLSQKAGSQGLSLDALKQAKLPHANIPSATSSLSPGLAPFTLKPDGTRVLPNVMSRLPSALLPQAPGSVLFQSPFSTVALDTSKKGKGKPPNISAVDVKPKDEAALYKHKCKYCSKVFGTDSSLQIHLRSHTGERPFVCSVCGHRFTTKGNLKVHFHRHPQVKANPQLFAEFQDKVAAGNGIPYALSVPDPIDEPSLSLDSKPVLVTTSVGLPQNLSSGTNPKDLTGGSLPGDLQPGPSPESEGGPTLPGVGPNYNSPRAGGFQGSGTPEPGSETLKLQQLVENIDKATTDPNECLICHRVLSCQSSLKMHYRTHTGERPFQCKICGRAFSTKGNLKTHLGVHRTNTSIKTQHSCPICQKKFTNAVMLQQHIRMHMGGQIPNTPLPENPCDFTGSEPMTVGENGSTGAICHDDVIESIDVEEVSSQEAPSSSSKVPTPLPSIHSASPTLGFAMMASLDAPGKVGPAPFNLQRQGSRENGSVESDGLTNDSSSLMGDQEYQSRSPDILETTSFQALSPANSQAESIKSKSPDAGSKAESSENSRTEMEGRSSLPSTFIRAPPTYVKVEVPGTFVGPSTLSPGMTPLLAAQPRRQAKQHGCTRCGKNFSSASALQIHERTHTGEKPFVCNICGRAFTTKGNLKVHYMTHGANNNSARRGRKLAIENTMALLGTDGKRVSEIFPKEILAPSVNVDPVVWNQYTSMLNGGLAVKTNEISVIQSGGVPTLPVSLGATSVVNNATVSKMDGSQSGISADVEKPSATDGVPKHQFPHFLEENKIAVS
# Technique: universal PBM
# Form: double-stranded DNA, one strand shown
# Sample: in vitro
# Tested at: 600 nM
# Setting: 8-mer, flanks averaged, mean of replicates
# Direction: higher = stronger binding
Strand,E-score
ATAATGCA,0.279
CACCCGTC,-0.295
CTCTTTGC,0.0066
AGACACCC,-0.185

# Study 2
# Target: Interferon regulatory factor 5, full length, phosphomimetic (IRF5, Homo sapiens, UniProt Q13568-2, residues 1-514, S451D/S453D/S456D/S462D)
# Technique: protein-binding microarray
# Form: double-stranded DNA, one strand shown
# Sample: in vitro
# Tested at: 940 nM top
# Setting: 60-bp whole probe
# Together with: salmon DNA 0.4 mg/ml
# Relative to: random background probes
# Direction: higher = stronger binding
# All sequences stand within: GCCTAGCAC … GTCTTGATTCGCTTGACGCTGCTG
Strand,fitted relative affinity [z-score]
TCATTTTTAGATATCTTACTGTGCTAG,0.25
GACGGACTGCTACTGCTGAAGTGCTAG,-0.648
GACGATTTCAGTATCCAGACGTGCTAG,0.502
TCAAGAGTAGTTTTTCAAACTGTGCTA,-0.401
GATGGTTTCCTACTGCTGACGTGCTAG,0.876

# Study 3
# Target: Centromere-binding protein 1, full length, His-tagged (CBF1, Saccharomyces cerevisiae, UniProt P17106, residues 1-351)
# UniProt P17106, sequence (whole entry, looked up): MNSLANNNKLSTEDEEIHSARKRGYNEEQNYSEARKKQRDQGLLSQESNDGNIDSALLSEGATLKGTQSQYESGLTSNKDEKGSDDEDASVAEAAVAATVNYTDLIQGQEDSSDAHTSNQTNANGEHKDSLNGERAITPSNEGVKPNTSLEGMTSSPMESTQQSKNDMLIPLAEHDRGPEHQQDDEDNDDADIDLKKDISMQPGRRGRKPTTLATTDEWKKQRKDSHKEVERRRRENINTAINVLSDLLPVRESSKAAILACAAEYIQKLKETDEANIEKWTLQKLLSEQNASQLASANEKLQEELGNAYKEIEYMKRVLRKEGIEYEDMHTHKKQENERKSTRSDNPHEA
# Technique: competition protein-binding microarray
# Form: double-stranded DNA, one strand shown
# Sample: in vitro
# Tested at: 2 µM
# Setting: whole 60-bp probe, lowest competitor level
# Together with: Pho4 competitor, 0.05 µM
# Direction: higher = stronger binding
Strand,fluorescence intensity [a.u.]
CCCACATATATACCGATGTTGATAAACACCATTAAAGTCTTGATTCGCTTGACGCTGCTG,69.8
CGGGGTTAAGTTTTTCACGTGAGCTGCTTGCAGCAGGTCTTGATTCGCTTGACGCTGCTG,1010
AACAATAGAGAATCGCACGTGGCAATATTCGCGTTAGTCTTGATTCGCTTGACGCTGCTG,1140
AACAGACCTGACGGCCACGATGCAGCAGACGCTTACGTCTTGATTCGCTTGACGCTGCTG,50.6
CTCTACCAGCACCATCACCTGTGAAATATTGACCAGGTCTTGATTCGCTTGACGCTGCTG,91.7

# Other studies, line by line
Substance,target,assay,system,setting,how to read,quantity,result
"PhoQ, residues 284 288 289 292 302 303 SSLVEF","PhoP, residues 12 14 15 18 19 IQSYL (Escherichia coli, UniProt P23836)","Sort-seq, measured: YFP reporter",E. coli,"PhoQ-PhoP variant library, together with: 10 µM Mg2+","relative to: high Mg2+ state, higher = stronger signaling",fold induction,1.67

# A few entries again (study 3):
Strand,fluorescence intensity [a.u.]
AACAATAGAGAATCGCACGTGGCAATATTCGCGTTAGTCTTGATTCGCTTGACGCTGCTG,1140
